Published values of several laboratories.
Each line is one published result; not all experiments were run side by side. Several values in a cell are separate wells, animals, samples, runs or records. ± gives the spread as reported.
CDC48A: CDC48A 1-463 (Arabidopsis thaliana, UniProt P54609)
Chain of UniProt P54609 (whole entry, looked up): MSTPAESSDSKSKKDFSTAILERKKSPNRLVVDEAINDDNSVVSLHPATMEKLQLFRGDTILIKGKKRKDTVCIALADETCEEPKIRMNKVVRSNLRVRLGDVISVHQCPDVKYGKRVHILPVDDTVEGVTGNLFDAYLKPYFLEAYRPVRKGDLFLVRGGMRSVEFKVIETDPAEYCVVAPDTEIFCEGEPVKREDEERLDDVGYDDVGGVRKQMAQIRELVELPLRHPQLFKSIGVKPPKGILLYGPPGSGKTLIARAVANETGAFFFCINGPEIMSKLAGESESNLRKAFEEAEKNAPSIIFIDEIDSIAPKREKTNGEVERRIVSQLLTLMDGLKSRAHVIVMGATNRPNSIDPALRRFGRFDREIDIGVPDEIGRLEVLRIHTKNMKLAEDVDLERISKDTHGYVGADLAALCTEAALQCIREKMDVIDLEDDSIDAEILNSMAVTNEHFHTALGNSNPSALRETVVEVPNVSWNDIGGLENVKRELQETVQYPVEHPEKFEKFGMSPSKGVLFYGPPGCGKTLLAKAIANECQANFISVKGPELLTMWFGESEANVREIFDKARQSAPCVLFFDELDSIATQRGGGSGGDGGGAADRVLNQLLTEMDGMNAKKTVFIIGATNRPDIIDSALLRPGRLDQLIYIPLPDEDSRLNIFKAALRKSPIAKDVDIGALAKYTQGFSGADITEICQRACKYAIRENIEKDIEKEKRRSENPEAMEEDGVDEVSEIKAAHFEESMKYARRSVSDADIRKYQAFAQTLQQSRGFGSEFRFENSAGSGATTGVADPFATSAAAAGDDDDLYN
B1: ANGPT1 283-498 (Homo sapiens, UniProt Q15389); chain FRDCADVYQAGFNKSGIYTIYINNMPEPKKVFCNMDVNGGGWTVIQHREDGSLDFQRGWKEYKMGFGNPSGEYWLGNEFIFAITSQRQYMLRIELMDWEGNRAYSQYDRFHIGNEKQNYRLYLKGHTGTAGKQSSLILHGADFSTKDADNDNCMCKCALMLTGGWWFDACGPSNLNGMFYTAGQNHGKLNGIKWHYFKGPSYSLRSTTMMIRPLDF
B2: LRG1 (Homo sapiens, UniProt P02750); sequence looked up; chain VTLSPKDCQVFRSDHGSSISCQPPAEIPGYLPADTVHLAVEFFNLTHLPANLLQGASKLQELHLSSNGLESLSPEFLRPVPQLRVLDLTRNALTGLPPGLFQASATLDTLVLKENQLEVLEVSWLHGLKALGHLDLSGNRLRKLPPGLLANFTLLRTLDLGENQLETLPPDLLRGPLQLERLHLEGNKLQVLGKDLLLPQPDLRYLFLNGNKLARVAAGAFQGLRQLDMLDLSNNSLASVPEGLWASLGQPNWDMRDGFDISGNPWICDQNLSDLYRWLQAQKDKMFSQNDTRCAGPEAVKGQTLLAVAKSQ
B3: PUX5 301-421 F395S (Arabidopsis thaliana, UniProt Q7Y175); chain KNPFQGVGRTLGASGSGSSSAPQASSAPMNVAPAPSRGLVVDPAAPTTSIQLRLADGTRLVSRFNNHHTVRDVRGFIDASRPGGSKEYQLLTMGSPPKQLTELDQTIEQAGIANAVVIQKF
B4: TEPSIN M474S/E475S/V477S (Homo sapiens, UniProt Q96N21); chain MAAAPPLRDRLSFLHRLPILLKGTSDDDVPCPGYLFEEIAKISHESPGSSQCLLEYLLSRLHSSSGHGKLKVLKILLYLCSHGSSFFLLILKRNSAFIQEAAAFAGPPDPLHGNSLYQKVRAAAQDLGSTLFSDTVLPLAPSQPLGTPPATGMGSQARPHSTLQGFGYSKEHGRTAVRHQPGQAGGGWDELDSGPSSQNSSQNSDLSRVSDSGSHSGSDSHSGASREPGDLAERVEVVALSDCQQELSLVRTVTRGPRAFLSREEAQHFIKACGLLNCEAVLQLLTCHLRGTSECTQLRALCAIASLGSSDLLPQEHILLRTRPWLQELSMGSPGPVTNKATKILRHFEASCGQLSPARGTSAEPGPTAALPGPSDLLTDAVPLPGSQVFLQPLSSTPVSSRSPAPSSGMPSSPVPTPPPDASPIPAPGDPSEAEARLAESRRWRPERIPGGTDSPKRGPSSCAWSRDSLFAGSSLSACPRLVGAGAAAGESCPDAPRAPQTSSQRTAAKEPPGSEPSAFAFLNA
B5: CFH domains 1108-1231 R1182S (Homo sapiens, UniProt P08603); sequence looked up; chain KCGPPPPIDNGDITSFPLSVYAPASSVEYQCQNLYQLEGNKRITCRNGQWSEPPKCLHPCVISREIMENYNIALSWTAKQKLYSRTGESVEFVCKRGYRLSSRSHTLRTTCWDGKLEYPTCAKR
B6: UNC5A 26-303 (Homo sapiens, UniProt Q6ZN44); chain QQSATVANPVPGANPDLLPHFLVEPEDVYIVKNKPVLLVCKAVPATQIFFKCNGEWVRQVDHVIERSTDGSSGLPTMEVRINVSRQQVEKVFGLEEYWCQCVAWSSSGTTKSQKAYIRIAYLRKNFEQEPLAKEVSLEQGIVLPCRPPEGIPPAEVEWLRNEDLVDPSLDPNVYITREHSLVVRQARLADTANYTCVAKNIVARRRSASAAVIVYVDGSWSPWSKWSACGLDCTHWRSRECSDPAPRNGGEECQGTDLDTRNCTSDLCVHTASGPEDV
B7: BRAF kinase 448-723 K723G/P722S/S720E/L716E/S713E/Q709R/L706S/A688R/Y673S/N661D/K630S/V600E/L588N/Q562R (Homo sapiens, UniProt P15056); sequence looked up; chain DDWEIPDGQITVGQRIGSGSFGTVYKGKWHGDVAVKMLNVTAPTPQQLQAFKNEVGVLRKTRHVNILLFMGYSTKPQLAIVTQWCEGSSLYHHLHASETKFEMKKLIDIARQTARGMDYLHAKSIIHRDLKSNNIFLHEDNTVKIGDFGLATEKSRWSGSHQFEQLSGSILWMAPEVIRMQDSNPYSFQSDVYAFGIVLYELMTGQLPYSNINDRDQIIFMVGRGSLSPDLSKVRSNCPKRMKRLMAECLKKKRDERPSFPRILAEIEELARELSG
B8: RAP1A (Homo sapiens, UniProt P62834); sequence looked up; chain MREYKLVVLGSGGVGKSALTVQFVQGIFVEKYDPTIEDSYRKQVEVDCQQCMLEILDTAGTEQFTAMRDLYMKNGQGFALVYSITAQSTFNDLQDLREQILRVKDTEDVPMILVGNKCDLEDERVVGKEQGQNLARQWCNCAFLESSAKSKINVNEIFYDLVRQINRKTPVEKKKPKKKSCLLL
B9: PLXNA2 RBD 1490-1600 (Homo sapiens, UniProt O75051); sequence looked up; chain LIRQQIEYKTLILNCVNPDNENSPEIPVKVLNCDTITQVKEKILDAVYKNVPYSQRPRAVDMDLEWRQGRIARVVLQDEDITTKIEGDWKRLNTLMHYQVSDRSVVALVPK
B10: Cacna1c 1647-1777 (Mus musculus, UniProt Q01815); sequence looked up; chain NALSLQAGLRTLHDIGPEIRRAISGDLTAEEELDKAMKEAVSAASEDDIFRRAGGLFGNHVTYYQSDSRGNFPQTFATQRPLHINKTGNNQADTESPSHEKLVDSTFTPSSYSSTGSNANINNANNTALGR
Chain of UniProt P27986 (whole entry, looked up): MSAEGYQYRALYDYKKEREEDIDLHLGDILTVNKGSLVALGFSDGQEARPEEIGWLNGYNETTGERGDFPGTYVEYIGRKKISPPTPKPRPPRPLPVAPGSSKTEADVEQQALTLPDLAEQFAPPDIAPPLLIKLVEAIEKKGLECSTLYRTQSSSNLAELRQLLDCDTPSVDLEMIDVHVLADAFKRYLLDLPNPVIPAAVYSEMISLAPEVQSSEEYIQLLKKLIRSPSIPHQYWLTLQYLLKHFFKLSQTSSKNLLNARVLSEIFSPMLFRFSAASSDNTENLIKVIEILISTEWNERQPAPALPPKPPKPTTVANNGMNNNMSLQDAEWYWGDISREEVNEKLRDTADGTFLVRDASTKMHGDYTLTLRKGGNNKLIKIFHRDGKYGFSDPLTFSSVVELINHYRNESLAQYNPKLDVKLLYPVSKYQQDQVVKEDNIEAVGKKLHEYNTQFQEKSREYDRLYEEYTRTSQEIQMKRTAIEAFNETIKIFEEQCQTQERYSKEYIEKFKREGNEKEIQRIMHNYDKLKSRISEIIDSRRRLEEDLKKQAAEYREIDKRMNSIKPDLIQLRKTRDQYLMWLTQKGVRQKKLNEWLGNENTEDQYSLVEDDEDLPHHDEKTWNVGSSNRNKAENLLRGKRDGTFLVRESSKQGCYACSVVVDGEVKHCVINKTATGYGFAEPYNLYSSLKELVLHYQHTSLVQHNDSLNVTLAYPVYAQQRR
Chain of UniProt P52198 (whole entry, looked up): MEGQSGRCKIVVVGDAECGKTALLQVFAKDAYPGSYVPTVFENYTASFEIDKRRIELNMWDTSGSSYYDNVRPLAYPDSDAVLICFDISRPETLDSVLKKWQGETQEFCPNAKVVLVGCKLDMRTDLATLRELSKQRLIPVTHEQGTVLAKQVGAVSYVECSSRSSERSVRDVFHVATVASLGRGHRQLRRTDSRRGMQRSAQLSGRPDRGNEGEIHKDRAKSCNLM
Chain of UniProt Q8BLU0 (whole entry, looked up): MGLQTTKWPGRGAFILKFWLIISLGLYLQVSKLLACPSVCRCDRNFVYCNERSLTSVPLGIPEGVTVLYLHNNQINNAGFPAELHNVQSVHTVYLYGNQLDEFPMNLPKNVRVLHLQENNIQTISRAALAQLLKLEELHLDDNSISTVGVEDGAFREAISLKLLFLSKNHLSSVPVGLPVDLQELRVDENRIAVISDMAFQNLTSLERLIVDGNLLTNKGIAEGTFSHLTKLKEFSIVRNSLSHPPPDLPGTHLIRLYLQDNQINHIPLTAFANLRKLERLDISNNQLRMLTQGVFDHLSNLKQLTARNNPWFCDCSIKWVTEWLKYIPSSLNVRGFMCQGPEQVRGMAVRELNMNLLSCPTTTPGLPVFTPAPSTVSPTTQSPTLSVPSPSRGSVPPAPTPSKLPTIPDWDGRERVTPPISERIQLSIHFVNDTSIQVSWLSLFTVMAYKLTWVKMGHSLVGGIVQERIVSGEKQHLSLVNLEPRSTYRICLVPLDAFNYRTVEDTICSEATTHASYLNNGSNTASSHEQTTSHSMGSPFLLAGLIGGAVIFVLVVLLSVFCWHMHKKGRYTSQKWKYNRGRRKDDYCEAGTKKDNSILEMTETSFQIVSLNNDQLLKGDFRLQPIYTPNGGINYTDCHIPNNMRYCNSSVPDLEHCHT
Chain of UniProt P01024 (whole entry, looked up): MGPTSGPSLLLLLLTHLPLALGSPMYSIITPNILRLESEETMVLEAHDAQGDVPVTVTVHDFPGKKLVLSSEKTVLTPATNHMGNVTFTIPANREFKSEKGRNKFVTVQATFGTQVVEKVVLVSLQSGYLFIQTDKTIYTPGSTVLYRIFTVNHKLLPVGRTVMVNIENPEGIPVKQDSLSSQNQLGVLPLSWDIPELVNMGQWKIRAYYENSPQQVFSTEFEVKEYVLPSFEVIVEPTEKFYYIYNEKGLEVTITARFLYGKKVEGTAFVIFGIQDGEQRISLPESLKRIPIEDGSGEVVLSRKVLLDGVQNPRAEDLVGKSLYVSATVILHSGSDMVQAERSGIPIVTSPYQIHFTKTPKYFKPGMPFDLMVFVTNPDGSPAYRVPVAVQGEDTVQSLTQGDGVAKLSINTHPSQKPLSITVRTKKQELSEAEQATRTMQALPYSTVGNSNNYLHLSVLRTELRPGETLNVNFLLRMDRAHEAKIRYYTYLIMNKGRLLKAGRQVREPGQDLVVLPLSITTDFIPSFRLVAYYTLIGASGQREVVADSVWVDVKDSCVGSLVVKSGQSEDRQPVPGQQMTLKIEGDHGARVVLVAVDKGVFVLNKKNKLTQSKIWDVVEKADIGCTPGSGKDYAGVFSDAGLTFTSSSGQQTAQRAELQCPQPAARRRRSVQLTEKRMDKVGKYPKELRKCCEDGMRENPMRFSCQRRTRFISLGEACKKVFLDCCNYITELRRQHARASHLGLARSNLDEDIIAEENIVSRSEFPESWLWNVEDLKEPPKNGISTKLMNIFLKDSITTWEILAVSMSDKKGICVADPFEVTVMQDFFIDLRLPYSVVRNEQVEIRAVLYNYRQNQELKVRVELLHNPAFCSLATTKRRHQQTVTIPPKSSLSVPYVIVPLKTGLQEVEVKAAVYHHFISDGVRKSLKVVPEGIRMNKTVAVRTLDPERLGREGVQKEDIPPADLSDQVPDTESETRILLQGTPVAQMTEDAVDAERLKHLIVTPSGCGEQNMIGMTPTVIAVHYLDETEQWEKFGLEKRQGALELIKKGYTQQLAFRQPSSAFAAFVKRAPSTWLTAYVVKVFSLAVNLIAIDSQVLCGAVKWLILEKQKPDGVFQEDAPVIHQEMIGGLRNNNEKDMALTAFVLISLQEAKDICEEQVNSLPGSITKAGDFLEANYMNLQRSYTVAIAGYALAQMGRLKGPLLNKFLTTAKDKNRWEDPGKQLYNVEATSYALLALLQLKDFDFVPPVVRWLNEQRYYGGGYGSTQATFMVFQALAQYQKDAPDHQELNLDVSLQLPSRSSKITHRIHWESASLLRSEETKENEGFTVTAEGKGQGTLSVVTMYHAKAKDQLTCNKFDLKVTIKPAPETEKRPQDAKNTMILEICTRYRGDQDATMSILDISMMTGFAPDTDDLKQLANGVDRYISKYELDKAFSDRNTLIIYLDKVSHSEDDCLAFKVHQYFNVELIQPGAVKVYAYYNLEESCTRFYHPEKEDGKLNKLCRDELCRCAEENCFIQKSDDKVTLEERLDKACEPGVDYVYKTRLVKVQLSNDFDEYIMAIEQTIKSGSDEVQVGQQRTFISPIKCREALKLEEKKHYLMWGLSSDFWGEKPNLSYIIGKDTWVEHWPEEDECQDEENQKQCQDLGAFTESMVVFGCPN
Chain of UniProt P25963 (whole entry, looked up): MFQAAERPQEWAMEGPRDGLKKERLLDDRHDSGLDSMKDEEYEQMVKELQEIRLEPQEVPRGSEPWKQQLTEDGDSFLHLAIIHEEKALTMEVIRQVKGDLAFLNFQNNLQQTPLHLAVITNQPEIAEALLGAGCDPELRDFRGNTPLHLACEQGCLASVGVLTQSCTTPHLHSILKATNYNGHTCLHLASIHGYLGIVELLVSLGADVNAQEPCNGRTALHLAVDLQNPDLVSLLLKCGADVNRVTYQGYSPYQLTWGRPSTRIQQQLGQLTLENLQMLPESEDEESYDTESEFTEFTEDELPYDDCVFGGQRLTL
Chain of UniProt Q9NZQ7 (whole entry, looked up): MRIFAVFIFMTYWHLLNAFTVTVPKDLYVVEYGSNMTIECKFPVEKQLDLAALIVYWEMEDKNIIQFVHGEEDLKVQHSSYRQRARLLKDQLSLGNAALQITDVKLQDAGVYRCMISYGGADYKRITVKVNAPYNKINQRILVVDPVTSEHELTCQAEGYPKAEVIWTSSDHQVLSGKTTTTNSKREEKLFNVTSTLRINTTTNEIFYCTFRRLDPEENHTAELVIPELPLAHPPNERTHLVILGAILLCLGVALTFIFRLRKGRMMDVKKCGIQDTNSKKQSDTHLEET

Molecule	target or system	test	test system	setting	how to read	endpoint	value
B1 (ANGPT1 283-498)	TEK 23-748 (Homo sapiens, UniProt Q02763)	SPR	–	–	–	Kd	23.8 µM
PUX5 fragment (Arabidopsis thaliana)	CDC48A	ITC	–	25 °C	–	Kd	3.3 ± 0.5 µM
B2 (LRG1)	ERBB3 20-643 (Homo sapiens, UniProt P21860)	BLI	–	–	–	Kd	0.149 µM
B3 (PUX5 301-421 F395S)	CDC48A	ITC	–	25 °C	–	Kd	3.2 ± 0.2 µM
LPDTDDRHRIEEKRKRTYETFKSAMKKSPFNGP (Rela 289-321 I312A (Mus musculus, UniProt Q04207); sequence looked up)	NFKBIA 67-206 (Homo sapiens, UniProt P25963)	ITC	peptide	–	–	Kd	0.54 ± 0.002 µM
B4 (TEPSIN M474S/E475S/V477S)	MAP1LC3B fragment (Homo sapiens)	BLI	–	–	–	Kd	5.89 µM and 7.66 µM and 6.2 µM and 5.04 µM
B5 (CFH domains 1108-1231 R1182S)	C3 C3dg 955-1303 (Homo sapiens, UniProt P01024)	SPR	–	–	–	Kd	8.1 ± 0.2 µM
B6 (UNC5A 26-303)	Flrt2 35-362 (Mus musculus, UniProt Q8BLU0)	SPR	–	–	–	Kd	8 µM
B7	MAP2K1 (Homo sapiens, UniProt Q02750)	BLI	–	–	–	Kd	0.0362 ± 0.00131 µM
colistin	Escherichia coli	–	clinical isolate RKI 867/14	–	–	MIC	≤ 0.5 µg/mL
STAMBPL1 (Homo sapiens, UniProt Q96FJ0)	UBB mature (UniProt P0CG47)	ITC	–	–	–	Kd	17.3 ± 4.3 µM
TPTPSARRTIGPRAPKSKTTY (Cdc12 residues 20-40 (Schizosaccharomyces pombe))	cdc15 19-312 E30K/E152K (Schizosaccharomyces pombe, UniProt Q09822)	ITC	peptide	–	–	Kd	5 µM
B8 (RAP1A)	PREX1 (Homo sapiens, UniProt Q8TCU6)	fluorescence titration	–	with: mant-GDP 1 µM	–	Kd	88 ± 8 µM
SCN2A IQ region I1911V (Homo sapiens) (sequence not shown)	CALM1 (Homo sapiens, UniProt P0DP23)	fluorescence titration	–	with: CaCl2	–	Kd	0.0221 µM
B9 (PLXNA2 RBD 1490-1600)	RND2 1-227 (Homo sapiens, UniProt P52198)	SPR	–	–	–	Kd	8.74 ± 2.42 µM
GCVRLHESCLGQQVPCCDPAATCYCVGRGDDNLKCYCR (designed peptide AgRP scaffold)	ITGAV/ITGB3 U87MG cells (Homo sapiens)	flow cytometry	designed binder, U87MG	–	–	Kd	0.0014 µM
PCSK9 (Homo sapiens, UniProt Q8NBP7)	evolocumab IgG, PBS-stressed 28 d, Asn deamidation, heavy chain CDR2 Asn55 and Fc	SPR	–	–	–	Kd	0.0016 µM
GGYMDMSKDESVDYVPML (PDGFRB 738-755; doubly phosphorylated)	PIK3R1 80-724 (Homo sapiens, UniProt P27986)	ITC	peptide	–	–	Kd	0.66 µM
KLLMIIHDRREAAKAEKEKMNAKWDTGENPIYKSAVTTVVNPKYEGK (ITGB1 cytoplasmic tail 752-798 FF/AA (UniProt P05556-1); sequence looked up)	Tln1 309-405 (Mus musculus, UniProt P26039)	NMR titration	–	–	–	Kd	1280 µM
SPTBN2 actin-binding domain K61E (sequence not shown)	ACTA1 F-actin (Oryctolagus cuniculus, UniProt P68135)	co-sedimentation	–	–	–	Kd	< 1 µM
WHRSYYTWNLAG (TR3-LAG peptide; Fam label)	CD274 (Homo sapiens, UniProt Q9NZQ7)	flow cytometry	peptide, MDA-MB-231	apparent, on cells	–	Kd	0.274 µM
F9 heavy and light chains, activated (UniProt P00740)	F8 activated, B-domain-deleted (Homo sapiens)	FXa generation, factor Xa generation rate	–	with: FX	–	Kd	0.0014 µM
CDH2 extracellular domain (Homo sapiens)	FGB residues 15-66, dimer (Homo sapiens)	ELISA	–	–	–	Kd	0.0133 µM
GSGAGRETEV	human MAGI1-3/6 PDZ construct (MBP fusion)	automated holdup	peptide, crude extract	concentration not given, corrected by standard peak, unit not given	relative to: biotin control resin, higher = stronger binding	binding intensity	0.219
ALB (Homo sapiens, UniProt P02768)	LACTB (Homo sapiens, UniProt P83111)	cross-linking MS	–	with: DSSO	–	cross-linked residues	K375 to K240
B10 (Cacna1c 1647-1777)	Jph2 1-440 S165K (Mus musculus, UniProt Q9ET78)	ITC	–	–	–	Kd	5.17 µM
BRCA1 coiled-coil domain M1400T (Homo sapiens)	PALB2 1-56 (Homo sapiens, UniProt Q86YC2)	ITC	–	–	–	Kd	20 µM
GSGAGKETRV	human SCRIB PDZ3-4 tandem (MBP fusion)	automated holdup	peptide, crude extract	concentration not given, uncorrected, unit not given	relative to: biotin control resin, higher = stronger binding	binding intensity	0.804

Excerpt of the above:
Molecule	target or system	test	test system	setting	how to read	endpoint	value
B6 (UNC5A 26-303)	Flrt2 35-362 (Mus musculus, UniProt Q8BLU0)	SPR	–	–	–	Kd	8 µM
B7	MAP2K1 (Homo sapiens, UniProt Q02750)	BLI	–	–	–	Kd	0.0362 ± 0.00131 µM
colistin	Escherichia coli	–	clinical isolate RKI 867/14	–	–	MIC	≤ 0.5 µg/mL
